Experimental data gathered from unrelated publications.
Each line is one published result; not all experiments were run side by side. Values joined by “and” are separate records of one study, mostly repeats; a detail may differ. ± gives the spread as reported.

| SMILES | target or system | assay | test system | setting | scale | endpoint | value |
| --- | --- | --- | --- | --- | --- | --- | --- |
| CN1CCCNC(=O)c2cccc(c2)C(=O)NCCCN(C)CCCNc2cccc3c2C(=O)c2cccc(c2C3=O)NCCC1 | SAS | RNA-Seq, item: OSBPL9 mRNA | – | 1 µM, 6 h | baseline: untreated cells | log2 fold change | -0.981 |
| O=C(NCCSc1ccc2c(/C=C/c3ccccn3)n[nH]c2c1)Nc1ccc(F)c(F)c1 | BaF3 | cell growth or viability, CCK-8 | – | – | – | GI50 | > 10 µM |
| CC(=O)N[C@@H](CC(=O)O)C(=O)N[C@@H](CCC(=O)O)C(=O)N[C@H](C(=O)N[C@@H](CC(=O)O)C(=O)COC(=O)c1c(C)cccc1C)C(C)C | THP-1 cells, LPS-primed | pyroptosis, LDH release | – | 25 µM, LPS 1 µg/mL, 4 h, with: nigericin 5 µM, 2 h | – | cell lysis | 32.6% and 33.7% |
| O=C(CN1CCCCC1)Nc1ccc(C2CCCCC2)cc1 | – | – | dog liver microsomes | 1 µM | – | hepatic clearance | 26 mL/min/kg |
| C=CC(=O)N1[C@H](c2ccc3c(c2)OCO3)c2[nH]c3ccccc3c2C[C@H]1C(=O)N1CCOCC1 | 22Rv1 | ATAC-seq | – | concentration not given, FOXA1-binding sites, log2FC -1 | – | decreased accessible sites | 625 sites |
| N#C[C@@H]1CC(F)(F)CN1C(=O)CNC(=O)c1ccnc2ccc(OCCCN3CCN(C(=O)CCc4ccc(O)c(CN5CCN6CC(=O)[O][Al-]([18F])([O]C(=O)C5)[O]c5ccc(CCC(=O)N7CCN(CCCOc8ccc9nccc(C(=O)NCC(=O)N%10CC(F)(F)C[C@H]%10C#N)c9c8)CC7)cc5C6)c4)CC3)cc12 (some centres unmarked) | HT1080 cells expressing human FAP | – | – | 30 min, 37 °C | – | internalized fraction | 78.5 ± 4.4% |
| O=C(N/N=C/c1cc[n+](CC2CC2)c2ccccc12)N/N=C/c1cc[n+](CC2CC2)c2ccccc12 | 22CTA telomeric G4-DNA antiparallel | FRET melting | – | 1 µM, K10 buffer, DNA 0.2 µM | – | ΔTm | 11.3 ± 1 °C |
| CCC(=CCc1c(O)cc2c(c1O)C(=O)CC(c1cccc(O)c1)O2)CC (centres unmarked) | HeLa | cell growth or viability, MTT | – | 6.25 µM, 48 h | – | inhibition | 16.3% |
| CC(=O)N[C@@H](CC(=O)O)C(=O)N[C@@H](CCCC(=O)O)C(=O)N[C@@H](CC(C)C)C(=O)N[C@@H](CC(=O)O)C(=O)COC(=O)c1c(C)cccc1C | THP-1 cells, LPS-primed | pyroptosis, LDH release | – | 25 µM, LPS 1 µg/mL, 4 h, with: nigericin 5 µM, 2 h | – | cell lysis | 30.2% |
| Cc1ncsc1-c1ccc(C(C)NC(=O)C2CC(O)CN2C(=O)C(NC(=O)CCCCCCCCCCN2CCCC(Nc3ncc(Cl)c(Nc4ccccc4S(=O)(=O)C(C)C)n3)C2)C(C)(C)C)cc1 (centres unmarked) | 22Rv1 | RNA-seq, item: MEIS3P1 mRNA | – | concentration not given | baseline: DMSO | log2 fold change | -1.24 |
| COc1cc(C(=O)N2CC[C@@H](O)[C@@H](N)C2)cc2nc(-c3cc4cccnc4n3CC3CC3)n(C)c12 | human neutrophils | Western blot densitometry, item: CitH3 band 6 over GAPDH | – | 0.1 µM, unit not given, with: ionomycin 5 µM | baseline: GAPDH loading control | citrullinated histone H3 level | 197000 and 171000 |
| COc1ccccc1CNC[C@@](O)(COCc1ccccc1)[C@@H]1CC[C@@H](C)C[C@H]1OCc1ccccc1 | A2780 | cell growth or viability, MTT | – | 30 µM, 72 h | – | inhibition | 99.1% |
| CCC(=CCc1c(O)cc2c(c1O)C(=O)CC(c1cccc(O)c1OC)O2)CC (centres unmarked) | HeLa | cell growth or viability, MTT | – | 25 µM, 48 h | – | inhibition | 50.9% |
| CC12CCCC(n3cc(CN4CCS(=O)(=O)CC4)nn3)(C1)C1CC(C)(C)C1CC2 (centres unmarked) | HT-29 | cell growth or viability, CCK-8 | – | 50 µM | – | inhibition | 40.4% |
| O=S(=O)(N[C@H]1CCO[C@@H](C2c3ccccc3CCc3ccccc32)C1)c1ccc(OC(F)(F)F)cc1 | D425 | immunoblot, item: CIP2A | – | concentration not given | – | protein level | decreased |
| O=C(NCCO)c1ccc(C2CCCCC2)cc1 | – | liver microsome stability | dog liver microsomes | 1 µM | – | hepatic clearance | 28 mL/min/kg |
| CCN(CC)CC(=O)Nc1cccc(-n2cc(-c3ccc4ccc(-c5cn(-c6cccc(NC(=O)CN(CC)CC)c6)nn5)cc4c3)nn2)c1 | RCC4 | PCR angiogenesis array, item: MMP2 | – | 5 x IC50, 2 h, normoxia | baseline: untreated | fold regulation | 2.11 |
| O=C(N/N=C/c1cc[n+](CC2CC2)c2ccccc12)c1cccc(C(=O)N/N=C/c2cc[n+](CC3CC3)c3ccccc23)c1 | 22CTA telomeric G4-DNA antiparallel | FRET melting | – | 1 µM, K10 buffer, DNA 0.2 µM | – | ΔTm | 11.9 ± 0.8 °C |
| CN1CCN(C(=O)c2cn(C34CCCC(C)(CCC5C3CC5(C)C)C4)nn2)CC1 (centres unmarked) | HT-29 | cell growth or viability, CCK-8 | – | 50 µM | – | inhibition | 86% |
| CCc1c(-c2ccc3[nH]ncc3c2)cnc(N)c1-c1ccc(O)cc1 | CHP-212 resistant sublines, USP7 V517F heterozygous | – | – | 12.5 µM | – | viability | 92.3% |
| COc1ccccc1-c1ccncc1C(=O)Nc1nnc(OCc2ccc(Cl)cc2)s1 | DLD-1 BRCA2-/- | – | – | 0.5 µM, mean of replicates | – | colony count | 36.5 and 20.5 and 41 |
| CNS(=O)(=O)Nc1nccc(Cc2c(C)c3ccc(Oc4ncccc4F)cc3oc2=O)c1F | HEC-6 | cell viability | – | 7 days | – | IC50 | 0.987 µM |
| O=S(=O)(Nc1ccc(OC(F)(F)F)cc1)N1CCCC(C2c3ccccc3CCc3ccccc32)C1 (centres unmarked) | D341 | CellTiter | – | concentration not given, 72 h | – | cell proliferation | decreased |

For quick reference, copied from above:
| SMILES | target or system | assay | test system | setting | scale | endpoint | value |
| --- | --- | --- | --- | --- | --- | --- | --- |
| Cc1ncsc1-c1ccc(C(C)NC(=O)C2CC(O)CN2C(=O)C(NC(=O)CCCCCCCCCCN2CCCC(Nc3ncc(Cl)c(Nc4ccccc4S(=O)(=O)C(C)C)n3)C2)C(C)(C)C)cc1 (centres unmarked) | 22Rv1 | RNA-seq, item: MEIS3P1 mRNA | – | concentration not given | baseline: DMSO | log2 fold change | -1.24 |
| COc1cc(C(=O)N2CC[C@@H](O)[C@@H](N)C2)cc2nc(-c3cc4cccnc4n3CC3CC3)n(C)c12 | human neutrophils | Western blot densitometry, item: CitH3 band 6 over GAPDH | – | 0.1 µM, unit not given, with: ionomycin 5 µM | baseline: GAPDH loading control | citrullinated histone H3 level | 197000 and 171000 |
| COc1ccccc1CNC[C@@](O)(COCc1ccccc1)[C@@H]1CC[C@@H](C)C[C@H]1OCc1ccccc1 | A2780 | cell growth or viability, MTT | – | 30 µM, 72 h | – | inhibition | 99.1% |
| CCC(=CCc1c(O)cc2c(c1O)C(=O)CC(c1cccc(O)c1OC)O2)CC (centres unmarked) | HeLa | cell growth or viability, MTT | – | 25 µM, 48 h | – | inhibition | 50.9% |
